Measured values pooled from the literature.
Each line is one published result; not all experiments were run side by side. Several values in a cell are separate wells, animals, samples, runs or records. ± gives the spread as reported.

Cc1cccc(-c2cccc(C)n2)n1.Cc1cccc(-c2cccc(C)n2)n1.F[P-](F)(F)(F)(F)F.F[P-](F)(F)(F)(F)F.[Ru+2].c1cc2ccc3ccc(-c4nc5c6cccnc6c6ncccc6c5[nH]4)c4ccc(c1)c2c34
EC50 (SK-MEL-28; cell viability; normoxia, added: blue light 453 nm, 100 J/cm2): 2.9 ± 0.06 µM

O=C(C[Se]C(=O)c1ccc2ccccc2c1)Nc1cccc(C(F)(F)F)c1
TGI (NCI60 breast subpanel mean; cell growth): 4.24 µM

CNS(=O)(=O)Nc1nccc(Cc2c(C)c3ccc(Oc4ncccc4F)cc3oc2=O)c1F
IC50 (SK-MEL-1; cell viability; 7 days): 0.00214 µM

COC1CN([C@H]2CC[C@H]([C@@]3(C)Oc4c(Cl)cc(C(=O)NCc5c(SC)cc(C)[nH]c5=O)c(C)c4O3)CC2)C1
log2 fold change (RNA-seq, measured: STAC; human, whole blood; dose not given, 24 h; baseline: pretreatment baseline): 3.16

CSC(=S)N/N=C(\C)c1ccc(Nc2nnc(-c3ccc(Cl)cc3)c3ccccc23)cc1
viability (HepG2; cell growth or viability, MTT; 10 µM, 24 h): 7.84%

COc1cccc(OC)c1-c1cc(C(=O)NC2(C(=O)O)C3CC4CC(C3)CC2C4)nn1-c1ccc(C(=O)N(C)CCOCCOCCN(C)C(=O)[C@H](CCCCNC(=O)[C@H](CC(C)C)NC(=O)C2OC2C(=O)O)NC(=O)CN2CCN(CC(=O)[O-])CCN(CC(=O)[O-])CCN(CC(=O)[O-])CC2)cc1C(C)C.[177Lu+3] (mixture of isomers)
adduct formation (HT-29; SDS-PAGE autoradiography; concentration not given, 4 h; baseline: radioactive signal): 51.7%

Cc1cc(NC2CCN(C)CC2)ccc1-c1cc2c(N3CCC[C@H](C(=O)N[C@H](C)c4ccccc4)C3)ncnc2[nH]1
inhibition (NCI-H3122; cell growth or viability, MTT; 0.0016 µg/mL, 72 h): 7.64%

CSCC[C@H](NC(=O)[C@H](CCC(N)=O)NC(=O)[C@H](CCCCN)NC(=O)[C@H](CCCNC(=N)N)NC(=O)[C@H](Cc1ccc(O)cc1)NC(=O)[C@H](CCCNC(=N)N)NC(=O)[C@H](CO)NC(=O)[C@H](Cc1ccc(O)cc1)NC(=O)[C@H](CO)NC(=O)[C@H](CC(=O)O)NC(=O)[C@@H](NC(=O)[C@@H](N)Cc1ccccc1)[C@@H](C)O)C(=O)N[C@@H](C)C(=O)N[C@H](C(=O)N[C@@H](CCCCN)C(=O)N[C@@H](CCCCN)C(=O)N[C@@H](Cc1ccc(O)cc1)C(=O)N[C@@H](CC(C)C)C(=O)N[C@@H](C)C(=O)N[C@@H](C)C(=O)N[C@H](C(=O)N[C@@H](CC(C)C)C(=O)NCC(=O)N[C@@H](CCCCN)C(=O)N[C@@H](CCCNC(=N)N)C(=O)N[C@@H](Cc1ccc(O)cc1)C(=O)N[C@@H](CCCCN)C(=O)N[C@@H](CCC(N)=O)C(=O)N[C@@H](CCCCn1cc(C[C@H](NC(=O)CNC(=O)[C@H](CO)NC(=O)[C@H](CCCNC(=N)N)NC(=O)[C@H](CO)NC(=O)[C@H](CC(C)C)NC(=O)[C@H](CC(C)C)NC(=O)CNC(=O)[C@H](C)NC(=O)[C@H](CC(C)C)NC(=O)[C@H](CCCNC(=N)N)NC(=O)[C@H](Cc2c[nH]cn2)NC(=O)[C@@H](NC(=O)[C@@H](N)C(C)C)[C@@H](C)O)C(=O)N[C@H](C(=O)N[C@H](C(=O)N[C@@H](CCCCN)C(=O)N[C@@H](CC(N)=O)C(=O)N[C@@H](CC(N)=O)C(=O)N[C@@H](Cc2ccccc2)C(=O)N[C@H](C(=O)N2CCC[C@H]2C(=O)N[C@H](C(=O)N[C@@H](CC(N)=O)C(=O)N[C@H](C(=O)NCC(=O)N[C@@H](CO)C(=O)N[C@@H](CCCCN)C(=O)N[C@@H](C)C(=O)N[C@@H](Cc2ccccc2)C(N)=O)C(C)C)[C@@H](C)O)C(C)C)C(C)C)C(C)C)nn1)C(=O)N[C@H](C(=O)N[C@@H](CCCCN)C(=O)N[C@@H](CC(N)=O)C(=O)N[C@@H](CCCCN)C(N)=O)C(C)C)C(C)C)C(C)C
A2 (transfected COS-7 cells; cAMP accumulation, antagonist; added: PACAP-38): > 10 µM

O=C(C[Se]C(=O)c1cc2ccccc2s1)Nc1cccc(C(F)(F)F)c1
GI50 (NCI60 prostate subpanel (PC-3, DU-145); cell growth, inhibitor; five-dose): 1.43 µM

Cn1ncc2cc(-c3cncc(Cl)c3N3CCC4(CCNC4=O)CC3)ccc21
log2 fold change (LS174T; gene expression, microarray, measured: TRIM31 mRNA; concentration not given, 24 h; baseline: untreated cells): 2.46

Cc1cccc(-c2cccc(C)n2)n1.Cc1cccc(-c2cccc(C)n2)n1.F[P-](F)(F)(F)(F)F.F[P-](F)(F)(F)(F)F.[Ru+2].c1ccc2c(-c3nc4c5cccnc5c5ncccc5c4[nH]3)c3ccccc3cc2c1
phototoxicity index (SK-MEL-28; 1% O2, added: green light 523 nm, 100 J/cm2; baseline: dark over light EC50): 4

CCN(CC)CC(=O)Nc1cccc(-n2cc(-c3ccc4ccc(-c5cn(-c6cccc(NC(=O)CN(CC)CC)c6)nn5)cc4c3)nn2)c1
fold regulation (RCC4; PCR angiogenesis array, measured: FGFR3; 5 x IC50, 6 h, normoxia; baseline: untreated): -1.42

CCN(C(=O)c1cc(F)ccc1Oc1nncnc1N1CCC2(C1)CN([C@H](CCCN(C)CCOC)C(C)C)C2)C(C)C
GI50 (A-431; cell growth or viability; 7 days): > 10 µM

O=C(O)c1ccc(-c2ccc(O)cc2)c2c1C=C(c1ccc(O)cc1)OC2(c1ccc(O)cc1)c1ccc(O)cc1
apoptotic cells (NCI-H460; annexin V/PI flow cytometry; 20 µM, 24 h): 22.2%

CC(C)c1ccc(N(C)c2ccc3c(c2)OCC[C@H]3CNc2cnccc2C(=O)O)cc1
IC50 (TE-8; cell growth or viability, ATP luminescence; 7 days): ≥ 10 µM

C1=[N+]2CCCC[N+]3=Cc4ccc5[n]4[Au-]23[n]2c1ccc2-c1nc2ccccc2nc1-5.F[P-](F)(F)(F)(F)F
TGI (A498; NCI60 five-dose screen): 4 -log M

Cc1ncsc1-c1ccc(C(C)NC(=O)C2CC(O)CN2C(=O)C(NC(=O)CCCCCCCCCCN2CCCC(Nc3ncc(Cl)c(Nc4ccccc4S(=O)(=O)C(C)C)n3)C2)C(C)(C)C)cc1 (stereo not shown)
log2 fold change (22Rv1; RNA-seq, measured: RAP1GAP2 mRNA; concentration not given; baseline: DMSO): -1.55

COc1ccccc1-c1ccncc1C(=O)Nc1nnc(OCc2ccc(Cl)cc2)s1
colony count (DLD-1 parental; 1 µM, mean of replicates): 78.5 and 68.5 and 79.5

O=C(C[Se]C(=O)c1ccc2ccccc2n1)Nc1cccc(C(F)(F)F)c1
TGI (NCI60 breast subpanel mean; cell growth): 4.52 µM

C=CC(=O)N1[C@H](c2ccc3c(c2)OCO3)c2[nH]c3ccccc3c2C[C@@H]1C(=O)NC
mean neuron degeneration (rat DRG neurons; 30 µM, 48 h, added: vincristine 40 nM): 15.4%

COC(=O)c1cc(NC2=NC(=O)C(=Cc3ccc(C)cc3)S2)ccc1OC(C)=O
metabolite level (MCF7; GC-MS, measured: Lactic acid; 1 µM; baseline: DMSO): -0.19 fold change

CN1CCCNC(=O)c2cccc(c2)C(=O)NCCCN(C)CCCNc2cccc3c2C(=O)c2cccc(c2C3=O)NCCC1
log2 fold change (SAS; RNA-Seq, measured: TLCD1 mRNA; 1 µM, 6 h; baseline: untreated cells): -0.866

O=C(C[Se]C(=O)c1cc2ccccc2[nH]1)Nc1cccc(C(F)(F)F)c1
mean growth percent (NCI60 prostate subpanel (PC-3, DU-145); cell growth; 10 µM, 48 h, one-dose): -81.1%

Cc1cccc(-c2cccc(C)n2)n1.Cc1cccc(-c2cccc(C)n2)n1.F[P-](F)(F)(F)(F)F.F[P-](F)(F)(F)(F)F.[Ru+2].c1ccc2c(c1)Cc1cc(-c3nc4c5cccnc5c5ncccc5c4[nH]3)ccc1-2
phototoxicity index (SK-MEL-28; 1% O2, added: green light 523 nm, 100 J/cm2; baseline: dark over light EC50): 1

CCC(=CCc1c(O)cc2c(c1O)C(=O)CC(c1ccc(O)cc1)O2)CC (stereo not shown)
early apoptotic cells (HeLa; annexin V/PI staining; 48 µM, 48 h): 0.12 ± 0.01%

CO[C@@H]1[C@@H](OC(N)=O)[C@@H](O)[C@H](Oc2ccc3c(O)c(NC(=O)c4ccc(O)c(CC=C(C)C)c4)c(=O)oc3c2C)OC1(C)C
colony survival (HCT-116 BRCA2 wild-type; 100 µM, replicate A; baseline: untreated): 91.9%

Cc1c(Cl)cccc1Nc1ccccc1C(=O)[Se]CC(=O)Nc1cccc(C(F)(F)F)c1
mean growth percent (NCI60 prostate subpanel (PC-3, DU-145); cell growth; 10 µM, 48 h, one-dose): -79.5%

Cc1cc(NC2CCN(C)CC2)ccc1-c1cc2c(N3CCC[C@H](C(=O)NCc4ccc(OC(F)(F)F)cc4)C3)ncnc2[nH]1
inhibition (NCI-H3122; cell growth or viability, MTT; 0.00032 µg/mL, 72 h): 14.1%

O=CCNCCOn1c(=O)n(OCCNCCO)c(=O)n(OCCNCCOn2c(=O)n(OCCNCCO)c(=O)n(OCCNCCO)c2=O)c1=O
viability (A549; cell growth or viability, MTT; 50 µg/mL, 72 h): 41.9%

C#CCOC(=O)[C@@]1(C)C=C(C(=O)Nc2cccc(C(=O)Nc3ccc(C)c(Nc4nccc(-c5cccnc5)n4)c3)c2)C(=O)CC1
phospho-c-Jun level (SH-SY5Y MKK7 active; western blot, measured: phospho-c-Jun Ser73; 30 µM, unit not given; baseline: doxycycline without inhibitor): 0.104

C[C@@H]1Cc2c([nH]c3ccccc23)[C@@H](c2c(F)cc(/C=C/C(=O)O)cc2F)N1C12CC(C1)C2
log2 fold change (MCF7; RNA-seq, measured: PSCA mRNA; 1 µM, 24 h, E2-suppressed gene; baseline: DMSO vehicle): 1.64

Excerpt of the above:
CN1CCCNC(=O)c2cccc(c2)C(=O)NCCCN(C)CCCNc2cccc3c2C(=O)c2cccc(c2C3=O)NCCC1
log2 fold change (SAS; RNA-Seq, measured: TLCD1 mRNA; 1 µM, 6 h; baseline: untreated cells): -0.866

O=C(C[Se]C(=O)c1cc2ccccc2[nH]1)Nc1cccc(C(F)(F)F)c1
mean growth percent (NCI60 prostate subpanel (PC-3, DU-145); cell growth; 10 µM, 48 h, one-dose): -81.1%

Cc1cccc(-c2cccc(C)n2)n1.Cc1cccc(-c2cccc(C)n2)n1.F[P-](F)(F)(F)(F)F.F[P-](F)(F)(F)(F)F.[Ru+2].c1ccc2c(c1)Cc1cc(-c3nc4c5cccnc5c5ncccc5c4[nH]3)ccc1-2
phototoxicity index (SK-MEL-28; 1% O2, added: green light 523 nm, 100 J/cm2; baseline: dark over light EC50): 1

CCC(=CCc1c(O)cc2c(c1O)C(=O)CC(c1ccc(O)cc1)O2)CC (stereo not shown)
early apoptotic cells (HeLa; annexin V/PI staining; 48 µM, 48 h): 0.12 ± 0.01%
